# Measurements from different studies.
# Parts stem from different laboratories: compare values within a part only. Changes are numbered by the printed parent chain.

# Sample 1
# Target: CCNA2, cyclin fold, Cln2 fusion (human)
# Technique: yeast growth competition, sequencing
# Sample: yeast
# Setting: strong parent motif
# Baseline: not given
# Direction: higher = stronger binding
# Parent: CDKN1B docking peptide (human); PSACRNLFGPVDH; partner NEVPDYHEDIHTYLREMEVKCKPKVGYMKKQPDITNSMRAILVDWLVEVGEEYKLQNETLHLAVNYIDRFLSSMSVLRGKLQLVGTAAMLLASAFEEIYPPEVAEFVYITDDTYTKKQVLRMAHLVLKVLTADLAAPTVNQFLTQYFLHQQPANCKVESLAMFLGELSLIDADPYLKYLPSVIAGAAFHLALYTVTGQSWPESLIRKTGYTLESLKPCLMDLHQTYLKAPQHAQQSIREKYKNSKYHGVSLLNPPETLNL
Change,normalised enrichment score
A3Y,2.8
H13I,4.03
F8A,0.499

# Sample 2
# Target: Histone acetyltransferase KAT6A, winged helix 1, GST fusion (KAT6A, Homo sapiens, UniProt Q92794, residues 1-85)
# Technique: protein binding microarray
# Molecule type: double-stranded DNA, one strand shown
# Sample: in vitro
# Tested at: not given
# Setting: 8-mer, flanks averaged, mean of 2 arrays, mostly near background
# Baseline: not given
# Direction: higher = stronger binding
# Residues (chain): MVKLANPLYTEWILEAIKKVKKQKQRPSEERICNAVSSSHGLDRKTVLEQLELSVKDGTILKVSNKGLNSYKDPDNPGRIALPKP
Sequence,E-score
CGATCTGC,0.0334
GGAGTGCC,0.105
TTGTAAAA,-0.233
CAGACACC,-0.166
CGTGAGCA,0.185
ATAGCGCA,0.197

# Sample 3
# Target: Prothrombin, mature alpha-thrombin (F2, Homo sapiens, UniProt P00734)
# Technique: aptamer microarray, sandwich
# Molecule type: DNA with 2'F-ANA
# Sample: in vitro
# Tested at: 200 nM
# Setting: whole 15-mer aptamer, many near background
# Together with: Cy3 exosite-II aptamer, 400 nM
# Direction: higher = stronger binding
# Sequence: GGTTGGTGTGGTTGG
Modification,mean fluorescence intensity [a.u.]
2'F-ANA at 3 5 6 8 10 12 13 15,52.6
2'F-ANA at 2 3 11,813
2'F-ANA at 2 3 4 5 11 12 14 15,56.4
2'F-ANA at 2 3 4 5 6 9 10 13 14,83.4
2'F-ANA at 2 5 8 9 10 12 13 14,51.9
2'F-ANA at 1 3 4 5 10 12 13,47.5

# Single results of other studies
Substance,target,assay,system,conditions,how to read,endpoint,value
"PhoQ, residues 284 288 289 292 302 303 STVVAA","PhoP, residues 12 14 15 18 19 NQAHL (Escherichia coli, UniProt P23836)","Sort-seq, item: YFP reporter",E. coli,"PhoQ-PhoP variant library, together with: 10 µM Mg2+","baseline: high Mg2+ state, higher = stronger signaling",fold induction,0.923
